Results collected from several papers.
Each line is one published result; not all experiments were run side by side. pIC50: −log10 of the molar value.
Sequence of UniProt P00519 (whole entry, unmodified, looked up): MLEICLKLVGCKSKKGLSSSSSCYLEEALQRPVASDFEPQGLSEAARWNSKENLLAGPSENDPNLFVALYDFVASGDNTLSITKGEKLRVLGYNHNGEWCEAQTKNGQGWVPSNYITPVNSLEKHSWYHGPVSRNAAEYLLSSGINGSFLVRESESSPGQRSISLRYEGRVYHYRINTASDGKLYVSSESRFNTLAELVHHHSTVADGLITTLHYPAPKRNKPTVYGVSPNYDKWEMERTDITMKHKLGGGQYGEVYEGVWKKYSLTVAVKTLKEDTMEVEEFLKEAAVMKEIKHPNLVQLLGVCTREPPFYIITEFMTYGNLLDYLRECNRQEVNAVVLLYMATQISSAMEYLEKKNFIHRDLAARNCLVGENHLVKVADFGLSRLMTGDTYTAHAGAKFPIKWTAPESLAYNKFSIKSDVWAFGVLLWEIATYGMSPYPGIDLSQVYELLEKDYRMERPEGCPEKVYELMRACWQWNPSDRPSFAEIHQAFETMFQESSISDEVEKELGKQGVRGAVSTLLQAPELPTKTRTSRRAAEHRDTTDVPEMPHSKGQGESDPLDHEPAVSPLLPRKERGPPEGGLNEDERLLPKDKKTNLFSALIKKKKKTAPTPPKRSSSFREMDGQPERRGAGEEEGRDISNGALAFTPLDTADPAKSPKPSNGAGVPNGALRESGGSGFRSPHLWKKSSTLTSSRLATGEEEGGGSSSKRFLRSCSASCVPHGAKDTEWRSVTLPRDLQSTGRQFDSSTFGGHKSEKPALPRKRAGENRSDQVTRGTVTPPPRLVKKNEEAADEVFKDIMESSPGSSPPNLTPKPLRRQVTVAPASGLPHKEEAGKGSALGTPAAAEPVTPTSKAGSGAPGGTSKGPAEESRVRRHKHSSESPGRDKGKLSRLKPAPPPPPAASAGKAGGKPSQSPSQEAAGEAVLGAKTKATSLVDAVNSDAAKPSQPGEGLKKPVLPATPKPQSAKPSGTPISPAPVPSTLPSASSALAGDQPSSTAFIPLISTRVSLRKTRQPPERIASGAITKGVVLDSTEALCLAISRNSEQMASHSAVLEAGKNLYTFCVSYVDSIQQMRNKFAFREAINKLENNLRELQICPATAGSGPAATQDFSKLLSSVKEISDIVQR

For `COc1cc2ncnc(Nc3ccc4c(c3)/C(=C/c3cccc(Cl)c3)C(=O)N4C)c2cc1OC`, the pIC50 was 5.68 (B16; cell growth or viability, MTT).
For `CCCCn1cnc2ccc(-c3ccc(NC(=O)Nc4ccc(OC(F)(F)F)cc4)nc3)cc2c1=O`, the pIC50 was under 5.00 (HCC827; cell growth or viability, CCK-8; 72 h).
With `COC(=O)CN=c1scc(-c2ccccc2)n1-c1ccc(Cl)cc1` the pIC50 was 5.07 (HepG2; cell growth or viability, MTT; 72 h).
With `CC1(C)CC[C@]2(CO)CC[C@]3(C)C(=CC[C@@H]4[C@@]5(C)CC[C@H](O)C(C)(C)[C@@H]5CC[C@]43C)[C@@H]2C1` the pIC50 was under 4.00 (RAW264.7; NO release, inhibitor, Griess; LPS-stimulated).
With `Cc1ccccc1Cn1cc(-c2cccc(NC(=O)Nc3ccc(F)cc3)c2)nn1` the pIC50 was 4.93 (Huh-7; cell growth or viability, CCK-8; 72 h).
With `Cc1nc(N(C)c2ccc3c(c2)/C(=C/c2ccccc2Cl)C(=O)N3C)c2ccccc2n1` the pIC50 was 5.05 (BEAS-2B; cell growth or viability, MTT).
The pIC50 of `CO[C@]12C[C@@H](COC(=O)c3cncc(Br)c3)CN(C)[C@@H]1Cc1cn(C)c3cccc2c13` is reported as 4.71 (HONE1; cell growth or viability, MTT; 48 h).
The pIC50 of `COc1cccc2c1C(=O)c1c(O)c3c(c(O)c1C2=O)C[C@@](O)(C(=O)CO)C[C@@H]3O[C@H]1C[C@H](N)[C@H](O)[C@H](C)O1` is reported as 6.62 (A549; cell growth or viability, MTT; 75 h).
For `Cc1nc(N(Cc2ccccc2)c2ccc3c(c2)/C(=C/c2ccccc2)C(=O)N3Cc2ccccc2)c2ccccc2n1` (mixture of isomers), the pIC50 was 4.72 (BEAS-2B; cell growth or viability, MTT).
For `Cc1cc(/C=C/C#N)cc(C)c1Nc1ccnc(Nc2ccc(C#N)cc2)n1`, the pIC50 was 4.59 (HONE1; cell growth or viability, MTT; 48 h).
With `NC(=O)NOCCCCCCCCCCCCCC[P+](c1ccccc1)(c1ccccc1)c1ccccc1` the pIC50 was 6.05 (HCT-116; cell growth or viability, imaging).
With `C[C@]12O[C@H](C[C@]1(O)CO)n1c3ccccc3c3c4c(c5c6ccccc6n2c5c31)CNC4=O` the pIC50 was 8.20 (MV4-11; cell growth or viability, ATP luminescence; 72 h).
With `CCCCn1cnc2ccc(-c3ccc(NC(=O)C4CCC4)nc3)cc2c1=O` the pIC50 was 5.83 (NCI-H1975; cell growth or viability, CCK-8; 72 h).
`Cc1nc(Nc2ccc3c(c2)/C(=C/c2ccccc2)C(=O)N3Cc2ccccc2)c2ccccc2n1` gave a pIC50 of 4.62 (BEAS-2B; cell growth or viability, MTT).
The pIC50 of `CCCC(=O)Nc1ccc(-c2ccc3ncn(CCC)c(=O)c3c2)cn1` is reported as 6.74 (HCC827; cell growth or viability, CCK-8; 72 h).
`Cc1nc(NC(=O)N2CCC[C@H]2C(N)=O)sc1-c1ccnc(C(C)(C)C(F)(F)F)c1` has a pIC50 of 4.73 (BEAS-2B; cell growth or viability, MTT).
`CCCCCC(=O)Nc1ccc(-c2ccc3ncn(CCCC)c(=O)c3c2)cn1` has a pIC50 of 6.32 (NCI-H1975; cell growth or viability, CCK-8; 72 h).
With `COc1cc2ncnc(N(C)c3ccc4c(c3)/C(=C/c3ccccc3)C(=O)N4C)c2cc1OC` (mixture of isomers) the pIC50 was 4.63 (BEAS-2B; cell growth or viability, MTT).
With `CCCCC(=O)Nc1ccc(-c2ccc3ncn(CCC)c(=O)c3c2)cc1F` the pIC50 was 6.14 (HCC827; cell growth or viability, CCK-8; 72 h).
`Cc1nc(Nc2ncc(C(=O)Nc3c(C)cccc3Cl)s2)cc(N2CC[C@H](O)C2)n1` gave a pIC50 of under 5.00 (SU-DHL-1; cell growth or viability, ATP luminescence; 72 h).
The remaining binding of `C=CC(=O)N1CCC(COCC(=O)N2CCN(c3nc(-c4cnc(N)nc4C(F)F)nc(N4CCOC[C@@H]4C)n3)CC2)CC1` is reported as 100% (Tyrosine-protein kinase ABL1, phosphorylated (ABL1, Homo sapiens, UniProt P00519, F317I); binding, competition with immobilised ligand; 1 µM).
With `C=C(F)C(=O)N1CCN(c2nc(OC[C@@H]3CCCN3C)nc3c2CCN(c2cccc4cccc(Cl)c24)C3)C[C@@H]1CC#N` the pIC50 was 6.12 (NCI-H23; cell growth or viability, ATP luminescence).
`CCCn1cnc2ccc(-c3ccc(N4CCCCCCC4=O)nc3)cc2c1=O` has a pIC50 of under 5.00 (HCC827; cell growth or viability, CCK-8; 72 h).
With `CC(C)C[C@H](NC(=O)[C@H](Cc1ccccc1)NC(=O)c1cnccn1)B(O)O` the pIC50 was 7.74 (NCI-H838; cell growth or viability, ATP luminescence).
With `COC(=O)c1cc(C(C)=NNc2nc(-c3cccc4cc[nH]c34)cs2)ccc1O` the pIC50 was 3.69 (human Skin fibroblast; cell growth or viability, MTT; 96 h).
The pIC50 of `CCCCC(=O)Nc1ccc(-c2ccc3ncn(CC4CCC4)c(=O)c3c2)cn1` is reported as 7.05 (HCC827; cell growth or viability, CCK-8; 72 h).
`COc1cc2ncnc(Nc3ccc4c(c3)/C(=C/c3ccccc3)C(=O)N4)c2cc1OC` has a pIC50 of under 4.30 (B16; cell growth or viability, MTT).
The pIC50 of `CCCCC(=O)Nc1cc(F)c(-c2ccc3ncn(CCC)c(=O)c3c2)cn1` is reported as 6.31 (HCC827; cell growth or viability, CCK-8; 72 h).
`COC(=O)CN=c1scc(-c2ccccc2)n1-c1ccc(OC)cc1` gave a pIC50 of 4.82 (HepG2; cell growth or viability, MTT; 72 h).

Excerpt of the above:
With `CCCCn1cnc2ccc(-c3ccc(NC(=O)C4CCC4)nc3)cc2c1=O` the pIC50 was 5.83 (NCI-H1975; cell growth or viability, CCK-8; 72 h).
`Cc1nc(Nc2ccc3c(c2)/C(=C/c2ccccc2)C(=O)N3Cc2ccccc2)c2ccccc2n1` gave a pIC50 of 4.62 (BEAS-2B; cell growth or viability, MTT).
The pIC50 of `CCCC(=O)Nc1ccc(-c2ccc3ncn(CCC)c(=O)c3c2)cn1` is reported as 6.74 (HCC827; cell growth or viability, CCK-8; 72 h).
`Cc1nc(NC(=O)N2CCC[C@H]2C(N)=O)sc1-c1ccnc(C(C)(C)C(F)(F)F)c1` has a pIC50 of 4.73 (BEAS-2B; cell growth or viability, MTT).
